Measured values collected from several papers.
Parts stem from different laboratories: compare values within a part only. Substitutions count along the parent as printed.

Sample 1
Target: Interferon regulatory factor 7, full length, phosphomimetic (IRF7, Homo sapiens, UniProt Q92985, residues 1-503, S471D/S472D/S475D/S476D/S477D/S483D/S484D/S487D)
Method: protein-binding microarray
Molecule type: double-stranded DNA, one strand shown
Sample: in vitro
Tested at: 2200 nM top
Setting: 60-bp whole probe
Together with: salmon DNA 0.4 mg/ml
Relative to: random background probes
Reading: higher = stronger binding
Quantity: fitted relative affinity
Constant ends, left off below: GCCTAGCAC … GTCTTGATTCGCTTGACGCTGCTG
Target sequence (chain): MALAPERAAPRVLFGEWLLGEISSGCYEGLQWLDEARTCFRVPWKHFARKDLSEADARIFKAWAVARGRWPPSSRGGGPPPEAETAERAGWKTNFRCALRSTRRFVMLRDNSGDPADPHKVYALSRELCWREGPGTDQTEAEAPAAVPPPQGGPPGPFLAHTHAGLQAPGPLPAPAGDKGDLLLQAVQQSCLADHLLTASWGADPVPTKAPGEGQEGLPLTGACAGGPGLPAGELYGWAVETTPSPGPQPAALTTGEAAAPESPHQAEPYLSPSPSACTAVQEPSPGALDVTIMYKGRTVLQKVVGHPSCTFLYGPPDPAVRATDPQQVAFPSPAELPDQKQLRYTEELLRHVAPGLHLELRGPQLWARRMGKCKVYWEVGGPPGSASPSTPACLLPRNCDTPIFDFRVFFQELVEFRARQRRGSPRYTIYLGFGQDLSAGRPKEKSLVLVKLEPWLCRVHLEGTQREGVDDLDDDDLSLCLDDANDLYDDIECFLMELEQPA
Strand = TTAAGACTGGGGACTGGGTTAGTGCTA; result = -0.714 z-score
Strand = TTAGGTCTCGGTTGCGGTTAGTGCTAG; result = 1.26 z-score
Strand = TCCTGGAGTCTATGCTGCTGGTGCTAG; result = -0.171 z-score
Strand = GACGATTTGAGTCTCGAGACGTGCTAG; result = 0.415 z-score
Strand = AACGGTTTCGGTCTCGGGACGTGCTAG; result = 6.87 z-score
Strand = TTCTCTCTGGCCCTCCTGAGGTGCTAG; result = 0.467 z-score
Strand = TTACAGCTATTTTTAGGATGGTGCTAG; result = -0.0529 z-score
Strand = TCCCTTCAACAGTGCTGGCTGTGCTAG; result = 0.952 z-score
Strand = GACGAACTGGGGGTTCGAGACGTGCTA; result = 0.35 z-score
Strand = GGGCACGTTGTTTAACTTCTGTGCTAG; result = -0.251 z-score
Strand = TTAGGAATGGGTTTCGGTTAGTGCTAG; result = 3.64 z-score
Strand = GACGGTATCCTCATCCTGACGTGCTAG; result = 0.944 z-score
Strand = GACGAACTGAGTCTCGGGACGTGCTAG; result = -0.297 z-score
Strand = TTAGGACTGGGTCTCGGCTAGTGCTAG; result = -0.642 z-score
Strand = TCACTTCTAGACTTCTCACTGTGCTAG; result = 1.64 z-score
Strand = TTAGGACTGGACTTTCGGTTTGTGCTA; result = 11.1 z-score
Strand = AACGGTTTCCTTTCCCTGACGTGCTAG; result = 4.78 z-score
Strand = TTAGGTATCGACATTGGGTTAGTGCTA; result = 0.222 z-score
Strand = GACGGTTTCAGTATCGAGACGTGCTAG; result = 2.35 z-score

Sample 2
Target: CCNE2, cyclin fold, Cln2 fusion (human)
Method: yeast growth competition, sequencing
Sample: yeast
Setting: weak parent motif
Relative to: not given
Reading: higher = stronger binding
Quantity: normalised enrichment score
Starting sequence: ORC1 docking peptide (human); PRARKRLELGNLG
Substitution = PRARWRLELGNLG [K5W]; result = 1.1
Substitution = PRARQRLELGNLG [K5Q]; result = 0.165
Substitution = PRARKRLELVNLG [G10V]; result = 0.573
Substitution = PRARKRLELGALG [N11A]; result = 0.226
Substitution = PRARKRLEYGNLG [L9Y]; result = 0.427
Substitution = PRARKRLSLGNLG [E8S]; result = -0.144
Substitution = PRARFRLELGNLG [K5F]; result = 1.05
Substitution = PPARKRLELGNLG [R2P]; result = 0.404
Substitution = PRARKRLEHGNLG [L9H]; result = 0.479
Substitution = PRAGKRLELGNLG [R4G]; result = 0.0645
Substitution = PFARKRLELGNLG [R2F]; result = 0.17
Substitution = PRYRKRLELGNLG [A3Y]; result = 1.27
Substitution = PRARKRLELGNRG [L12R]; result = 0.746
Substitution = PRARKRLELGRLG [N11R]; result = 0.694
Substitution = PSARKRLELGNLG [R2S]; result = 0.723
Substitution = PRARKRLESGNLG [L9S]; result = 0.899
Substitution = PRARKRLELGNWG [L12W]; result = 1.13
Substitution = PRARKRLELGNLV [G13V]; result = -0.185
Substitution = PRFRKRLELGNLG [A3F]; result = 0.267
Substitution = PRARKRLELGTLG [N11T]; result = 1.12
Substitution = PRARKRLELGWLG [N11W]; result = 0.756
Substitution = PRARKWLELGNLG [R6W]; result = 0.593
Substitution = PRARKRDELGNLG [L7D]; result = 0.159
Substitution = PRARKRLCLGNLG [E8C]; result = 1.64
Substitution = PRARKRTELGNLG [L7T]; result = -0.593

Sample 3
Target: RNA binding protein fox-1 homolog 2, RRM domain, GST-SBP tag (RBFOX2, Homo sapiens, UniProt O43251-10, residues 100-194)
Method: RNA Bind-n-Seq
Molecule type: RNA
Sample: in vitro
Tested at: 365 nM
Setting: natural RNA segment, single round, ends assumed
Relative to: no-protein control
Reading: higher = stronger binding
Quantity: RBNS enrichment (R)
Constant ends, left off below: GGGAGUUCUACAGUCCGACGAUC … UGGAAUUCUCGGGUGCCAA
Construct (chain): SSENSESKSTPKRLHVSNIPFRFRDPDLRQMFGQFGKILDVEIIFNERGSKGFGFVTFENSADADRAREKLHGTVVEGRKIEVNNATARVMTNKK
Strand = CCUGUGGCCAGGCGCUCCUGCACGUGCCCACUUCCUGCUCGGUACUGGUACUGGGUACAUGGGUAAGGGUGGUACAGUGAAACCCACUCUCUCCCCUUUUUAUAAUGUAG; result = 0.383
Strand = UCUUAUAUUGAGUCAGAUGCAUACUUUUAGAUUUGCAUUGGGGAAAAUGUACUAGCUAAAAAUGGAUACACAAUGAAGAAUUCUAUUUGGCUAAUUAAGAAUGAUAUACU; result = 1.01
Strand = GAACCCUCCAAUUCAGGAAGUGGGAAAAGGAGCCAGGAAAUGUGCUUCUACUUUGCCAGUUAUUUCAGACAGCACUACCAAGAGGAGGUGGUCAGCACUUGUUAUUGGCC; result = 0.741
Strand = CUUGUCAUCUUUUAGAGUAAACUAUUCUAUAAACAUAUGCAAACAGCCCUAAAUAAAUCUAAAGUCUAAAGUUUUAUUGAUGUGAAAUUAAAUUCUUAUUGGCCAAAUGC; result = 0.585
Strand = ACCUCUCUCCACGGAAAGGUCACAGUGGACAGCCCGGGCAGUAGGAUGCAGCCCCAGAGGCUGGUGGCAGUUUCCUGUCCAUUGGUAGGUGACGGCCCCUGGCUCAGGCA; result = 0.932
Strand = UGACCCCCGCCCUGUCCCUUUCAGUUUUGUCUGGGAGGGAGCACUAAAGCCUUUCCAGAGACUAUGCUAGAUACCACAGGCCCUGCCACCAUGGGCUGUGUAACCAGGCU; result = 0.393
Strand = UGGGCUGCUACUGUUGGCCACCCUGUGUCUAGUGAUGCUCUCUGUGCUCACCUCCUAGGCCAUGGAGCCUGAGGGGGCCUGCACCAGGUUUGCUGAAACUGACAGAGCCU; result = 0.191
Strand = AGAAAUGGUCAUAAACACAAAUCAAAAUAUAGUAUUAUAGAUCAUAGAACCAAGUCACGUAACCAGGAAAAACCUGUUAAUCAUAUCCCGUUGGAAAAUAUCACAUUUGA; result = 0.579

Sample 4
Target: ABI1, truncated, D143A, DHFR fusion (Arabidopsis thaliana)
Method: DHFR PCA, deep sequencing
Sample: yeast
Setting: methotrexate growth selection, single substitutions
Together with: (+)-ABA 2500 µM
Relative to: wild-type fitted maximum
Reading: higher = stronger binding
Quantity: relative binding score
Starting sequence: PYL1, truncated, DHFR fusion (Arabidopsis thaliana); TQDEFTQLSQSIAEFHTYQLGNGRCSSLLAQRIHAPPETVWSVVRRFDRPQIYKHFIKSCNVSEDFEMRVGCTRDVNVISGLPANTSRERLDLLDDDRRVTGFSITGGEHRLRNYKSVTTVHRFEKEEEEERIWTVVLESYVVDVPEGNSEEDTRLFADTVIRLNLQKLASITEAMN; partner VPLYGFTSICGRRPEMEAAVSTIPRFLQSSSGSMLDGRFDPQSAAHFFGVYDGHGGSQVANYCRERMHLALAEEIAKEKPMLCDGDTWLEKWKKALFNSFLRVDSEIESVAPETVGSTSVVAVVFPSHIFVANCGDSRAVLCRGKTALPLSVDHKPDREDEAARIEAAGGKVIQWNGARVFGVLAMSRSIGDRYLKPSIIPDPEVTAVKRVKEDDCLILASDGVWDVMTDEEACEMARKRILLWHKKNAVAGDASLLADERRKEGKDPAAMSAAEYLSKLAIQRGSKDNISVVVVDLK
Substitution = F47D; result = -3.34%
Substitution = A30E; result = 104%
Substitution = M176H; result = 95.1%
Substitution = R49H; result = 95.5%
Substitution = I57V; result = 95.6%
Substitution = T39G; result = 90.8%
Substitution = V137K; result = -4.78%
Substitution = S26F; result = 97.4%
Substitution = A35D; result = 25.4%
Substitution = S42I; result = 85.3%
Substitution = L82M; result = 92.2%
Substitution = C25V; result = 99.3%
Substitution = E174M; result = 93.2%
Substitution = N177K; result = 101%
Substitution = L166T; result = 29.3%
Substitution = T1Y; result = 98.8%
Substitution = E64I; result = 97.3%
Substitution = G148N; result = 99.4%
Substitution = V62R; result = 81%
